Published values of several laboratories.
Numbered parts are unrelated; each lists some results of a single study.

Sample 1 — method: protein binding microarray; form: double-stranded DNA, one strand shown; matrix: in vitro; concentration: not given; relative to: not given; reading: higher = stronger binding
Target: Histone acetyltransferase KAT6A, both winged helices, GST fusion (KAT6A, Homo sapiens, UniProt Q92794, residues 1-181)
Setting: 8-mer, flanks averaged, mean of 2 arrays, mostly near background
Residues (chain): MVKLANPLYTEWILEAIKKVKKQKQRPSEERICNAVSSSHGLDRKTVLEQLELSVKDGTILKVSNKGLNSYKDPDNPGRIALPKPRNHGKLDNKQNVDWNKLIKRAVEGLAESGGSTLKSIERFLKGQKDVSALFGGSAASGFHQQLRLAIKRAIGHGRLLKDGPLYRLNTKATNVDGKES
| Strand | E-score |
| --- | --- |
| AGTTAATG | -0.209 |
| ACGCCGTC | 0.296 |
| GTCCCATA | -0.0965 |
| CCGATACA | 0.0403 |
| AGTGTAGA | -0.252 |

Sample 2 — method: RNA Bind-n-Seq; form: RNA; matrix: in vitro; concentration: 200 nM; setting: whole 134-nt RNA, ends assumed; added: 150 mM LiCl; relative to: input library; reading: higher = stronger binding; all molecules: 7-deaza-guanosine replaces G
Target: Fragile X messenger ribonucleoprotein 1, C-terminal low-complexity region (Fmr1, Mus musculus, UniProt P35922)
| Strand | log2 enrichment |
| --- | --- |
| GGGAGUUCUACAGUCCGACGAUCCCUGUGCUACACAUCGUAUGUACCGAAUCGGGGAAAAAAGGGAAAAAAGGGGAAAAAAGGAAAGUAUUAUGUUACGCCGUUCGGAUCUGCUGGAAUUCUCGGGUGUCAAGG | 0.462 |
| GGGAGUUCUACAGUCCGACGAUCAGUCCUGUGCUACACAUCGUAUGUACCGAAUCGGAAAAAGGGAAAAAGGAAAAAGGGGAAAGUAUUAUGUUACGCCGUUCGGAUCUGCACUGGAAUUCUCGGGUGUCAAGG | -0.786 |
| GGGAGUUCUACAGUCCGACGAUCUCCUCAAGUCCUGUGCUACACAUCGUAUGUACCGAAUCGGAGGGAGGGAGGAAAGUAUUAUGUUACGCCGUUCGGAUCUGCACUUCCAGCUGGAAUUCUCGGGUGUCAAGG | -1.67 |

Sample 3 — method: protein-binding microarray; form: double-stranded DNA, one strand shown; matrix: in vitro; concentration: 2540 nM top; setting: 60-bp whole probe; added: salmon DNA 0.4 mg/ml; relative to: random background probes; reading: higher = stronger binding
Target: Interferon regulatory factor 3, full length, phosphomimetic (IRF3, Homo sapiens, UniProt Q14653, residues 1-427, S386D/S396D/S398D/S402D/T404D/S405D)
Construct (chain): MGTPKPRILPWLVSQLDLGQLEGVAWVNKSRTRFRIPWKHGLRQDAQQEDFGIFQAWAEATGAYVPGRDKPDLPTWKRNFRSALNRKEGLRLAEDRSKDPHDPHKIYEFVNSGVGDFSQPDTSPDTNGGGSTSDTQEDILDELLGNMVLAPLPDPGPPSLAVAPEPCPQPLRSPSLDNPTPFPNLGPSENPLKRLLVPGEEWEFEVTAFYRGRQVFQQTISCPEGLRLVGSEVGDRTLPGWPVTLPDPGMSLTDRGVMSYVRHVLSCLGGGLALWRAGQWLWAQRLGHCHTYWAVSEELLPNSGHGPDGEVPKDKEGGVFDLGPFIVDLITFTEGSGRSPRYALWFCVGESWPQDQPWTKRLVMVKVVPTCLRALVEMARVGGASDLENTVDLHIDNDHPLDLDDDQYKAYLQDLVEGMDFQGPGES
| Strand | fitted relative affinity |
| --- | --- |
| GCCTAGCACTTAGGTCTCCTTCTGCTTTAGTGCTAGGTCTTGATTCGCTTGACGCTGCTG | 1.88 z-score |
| GCCTAGCACTCACATTTACATTTTAGACTGTGCTAGGTCTTGATTCGCTTGACGCTGCTG | 1.8 z-score |
| GCCTAGCACTCTTCCTTTACTTTCTTTTTGTGCTAGGTCTTGATTCGCTTGACGCTGCTG | 3.02 z-score |

Single results of other studies
| Substance | target | test | test system | setting | how to read | measurement | result |
| --- | --- | --- | --- | --- | --- | --- | --- |
| PhoQ, residues 284 288 289 292 302 303 TNSAEL | PhoP, residues 12 14 15 18 19 VHSCL (Escherichia coli, UniProt P23836) | Sort-seq, measured: YFP reporter | E. coli | PhoQ-PhoP variant library, added: 10 µM Mg2+ | relative to: high Mg2+ state, higher = stronger signaling | fold induction | 0.951 |

Excerpt of the above (sample 2):
| Strand | log2 enrichment |
| --- | --- |
| GGGAGUUCUACAGUCCGACGAUCCCUGUGCUACACAUCGUAUGUACCGAAUCGGGGAAAAAAGGGAAAAAAGGGGAAAAAAGGAAAGUAUUAUGUUACGCCGUUCGGAUCUGCUGGAAUUCUCGGGUGUCAAGG | 0.462 |
| GGGAGUUCUACAGUCCGACGAUCUCCUCAAGUCCUGUGCUACACAUCGUAUGUACCGAAUCGGAGGGAGGGAGGAAAGUAUUAUGUUACGCCGUUCGGAUCUGCACUUCCAGCUGGAAUUCUCGGGUGUCAAGG | -1.67 |
